Measured values from different studies.
Parts stem from different laboratories: compare values within a part only. Values joined by “and” are separate records of one study, mostly repeats; a detail may differ.
Chain of UniProt Q16853 (whole entry, looked up): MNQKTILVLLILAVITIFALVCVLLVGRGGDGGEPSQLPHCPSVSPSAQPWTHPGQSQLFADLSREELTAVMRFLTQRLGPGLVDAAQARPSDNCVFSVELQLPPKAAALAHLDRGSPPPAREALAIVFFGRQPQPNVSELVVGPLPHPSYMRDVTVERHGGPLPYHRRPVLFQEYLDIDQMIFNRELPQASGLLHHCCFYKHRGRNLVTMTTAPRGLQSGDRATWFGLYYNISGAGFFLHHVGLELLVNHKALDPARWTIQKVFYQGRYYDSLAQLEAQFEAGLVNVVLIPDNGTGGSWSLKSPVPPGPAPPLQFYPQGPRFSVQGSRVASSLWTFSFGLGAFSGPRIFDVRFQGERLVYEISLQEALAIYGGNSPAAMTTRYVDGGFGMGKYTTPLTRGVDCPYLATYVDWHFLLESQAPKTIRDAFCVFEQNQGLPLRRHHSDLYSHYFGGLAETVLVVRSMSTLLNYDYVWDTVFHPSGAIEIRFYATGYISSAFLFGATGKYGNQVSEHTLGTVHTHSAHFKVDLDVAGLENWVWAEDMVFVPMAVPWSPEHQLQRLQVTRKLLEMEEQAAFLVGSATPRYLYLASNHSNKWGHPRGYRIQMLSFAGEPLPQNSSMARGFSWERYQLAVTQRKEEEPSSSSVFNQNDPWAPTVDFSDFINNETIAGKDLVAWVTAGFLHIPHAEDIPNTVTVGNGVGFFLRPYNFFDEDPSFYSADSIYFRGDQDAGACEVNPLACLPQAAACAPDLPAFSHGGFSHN

Study 1 — observed: thermal unfolding; technique: differential scanning fluorimetry; concentration: 5.5 µM; reading: higher = more unfolded
SMILES: C[C@@H]1CN(c2ccc(-c3cc(C(=O)NCCOCCOCCOCCOCCNC(=O)/C=C/c4[nH]cc(C(=O)N[C@@H](CC(N)=O)c5ccc(F)c(Cl)c5)c4-c4ccc(Cl)cc4F)ccc3F)cc2NC(=O)c2c[nH]c(=O)cc2C(F)(F)F)C[C@H](C)N1C
DCAF1: DDB1- and CUL4-associated factor 1 (DCAF1, Homo sapiens, UniProt Q9Y4B6)
Chain of UniProt Q9Y4B6 (whole entry, looked up): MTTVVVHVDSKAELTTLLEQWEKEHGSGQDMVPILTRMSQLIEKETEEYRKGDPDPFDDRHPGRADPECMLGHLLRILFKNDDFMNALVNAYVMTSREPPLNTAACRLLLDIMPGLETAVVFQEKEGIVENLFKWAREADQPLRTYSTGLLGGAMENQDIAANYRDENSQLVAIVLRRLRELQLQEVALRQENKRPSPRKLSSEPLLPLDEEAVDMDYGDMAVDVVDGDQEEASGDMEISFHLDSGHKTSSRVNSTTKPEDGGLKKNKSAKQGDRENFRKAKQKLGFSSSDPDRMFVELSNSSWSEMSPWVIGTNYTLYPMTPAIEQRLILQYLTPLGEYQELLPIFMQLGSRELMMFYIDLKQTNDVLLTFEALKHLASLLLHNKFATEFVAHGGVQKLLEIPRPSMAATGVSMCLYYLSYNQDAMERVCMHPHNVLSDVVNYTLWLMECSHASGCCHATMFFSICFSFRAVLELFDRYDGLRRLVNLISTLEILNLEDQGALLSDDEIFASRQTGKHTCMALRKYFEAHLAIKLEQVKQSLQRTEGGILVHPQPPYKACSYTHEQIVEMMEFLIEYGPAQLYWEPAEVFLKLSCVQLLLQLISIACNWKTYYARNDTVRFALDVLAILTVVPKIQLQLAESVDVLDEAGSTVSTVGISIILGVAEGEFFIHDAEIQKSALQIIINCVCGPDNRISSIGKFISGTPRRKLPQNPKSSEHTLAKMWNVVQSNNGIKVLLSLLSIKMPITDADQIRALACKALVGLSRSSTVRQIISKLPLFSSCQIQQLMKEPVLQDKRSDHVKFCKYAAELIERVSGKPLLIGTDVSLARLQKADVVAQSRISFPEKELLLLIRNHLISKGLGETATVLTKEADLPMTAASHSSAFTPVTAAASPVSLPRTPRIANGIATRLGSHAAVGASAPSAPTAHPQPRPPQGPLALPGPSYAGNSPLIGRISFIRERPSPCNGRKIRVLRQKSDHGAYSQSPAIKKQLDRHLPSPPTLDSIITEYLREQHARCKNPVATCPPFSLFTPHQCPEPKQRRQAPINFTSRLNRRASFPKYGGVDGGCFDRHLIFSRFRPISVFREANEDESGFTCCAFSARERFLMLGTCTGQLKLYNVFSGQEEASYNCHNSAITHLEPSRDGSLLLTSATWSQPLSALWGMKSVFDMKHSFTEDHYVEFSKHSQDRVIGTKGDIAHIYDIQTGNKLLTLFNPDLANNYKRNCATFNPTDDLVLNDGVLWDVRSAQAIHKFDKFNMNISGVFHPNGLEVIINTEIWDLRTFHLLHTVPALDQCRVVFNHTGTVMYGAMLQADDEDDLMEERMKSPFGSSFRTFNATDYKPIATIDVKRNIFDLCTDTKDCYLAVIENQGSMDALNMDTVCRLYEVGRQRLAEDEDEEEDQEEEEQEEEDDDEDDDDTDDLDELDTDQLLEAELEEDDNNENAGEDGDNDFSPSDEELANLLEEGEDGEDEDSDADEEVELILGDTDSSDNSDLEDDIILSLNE
WDR5: WD repeat-containing protein 5 (WDR5, Homo sapiens, UniProt P61964)
| target | temperature | SYPRO Orange fluorescence |
| --- | --- | --- |
| DCAF1 | 35.2 °C | 10300 a.u. |
| WDR5 | 54.81 °C | 16800 a.u. |
| DCAF1 | 83.81 °C | 41500 a.u. |
| DCAF1 | 47.6 °C | 14200 a.u. |
| WDR5 | 25 °C | 12800 a.u. |
| WDR5 | 56.61 °C | 16600 a.u. |

Single results of other studies
PKMYT1: Membrane-associated tyrosine- and threonine-specific cdc2-inhibitory kinase (PKMYT1, Homo sapiens, UniProt Q99640)
Chain of UniProt Q99640 (whole entry, looked up): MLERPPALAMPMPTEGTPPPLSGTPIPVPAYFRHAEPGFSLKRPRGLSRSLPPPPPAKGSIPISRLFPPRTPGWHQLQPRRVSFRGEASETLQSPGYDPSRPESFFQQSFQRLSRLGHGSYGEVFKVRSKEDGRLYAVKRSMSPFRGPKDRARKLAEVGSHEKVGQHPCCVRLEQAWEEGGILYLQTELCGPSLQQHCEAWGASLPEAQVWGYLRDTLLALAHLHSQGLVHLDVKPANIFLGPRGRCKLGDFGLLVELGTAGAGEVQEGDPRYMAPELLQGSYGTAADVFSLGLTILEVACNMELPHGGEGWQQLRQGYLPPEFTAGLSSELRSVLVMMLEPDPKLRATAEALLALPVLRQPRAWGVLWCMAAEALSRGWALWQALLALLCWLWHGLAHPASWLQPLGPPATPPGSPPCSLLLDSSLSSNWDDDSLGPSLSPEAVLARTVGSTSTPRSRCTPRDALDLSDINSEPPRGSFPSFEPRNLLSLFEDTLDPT
| Structure (SMILES) | target or system | test | system | setting | scale | quantity | result |
| --- | --- | --- | --- | --- | --- | --- | --- |
| Cc1ccc(O)c(C)c1-c1cnc2[nH]c(-c3cnc(N4CCC(CCN5CCN(c6ccc(N7CCC(=O)NC7=O)cc6F)CC5)CC4)nc3)cc2c1C#N | PKMYT1 | binding, HTRF |  | 333.33 nM |  | inhibition | 99.6% and 99.8% |
| O=c1[nH]c(=S)n(C[C@H]2CCCO2)c2nc[nH]c12 | AOC3 (Homo sapiens, UniProt Q16853) | enzyme activity, Amplex Red H2O2 production |  | 0.0412 µM |  | inhibition | 13.1% |
| Cc1ncc(-c2cc3c(Cl)c(-c4c(C)ccc(O)c4C)cnc3[nH]2)cn1 | PKMYT1 | binding, HTRF |  | 370.37 nM |  | inhibition | 52.5% and 53.6% |
| Cc1ncsc1-c1ccc(C(CO)NC(=O)C2CC(O)CN2C(=O)C(C(C)C)n2cc(-c3ccc(COc4c(-c5c(C)c(F)cc6[nH]ncc56)c(C5CC5)cc5c(N6CC7CC6CN7)nc(OC6CCOCC6)nc45)cc3)nn2)cc1 (stereo not drawn) |  |  | mouse, PK-59 xenograft, pancreas | intravenous, 30 mg/kg, 72 h |  | concentration | 136 ng/g and 80.1 ng/g |
| Cc1ccc(O)c(C)c1-c1cnc2[nH]c(-c3cnc(N4CCC5(CC4)CC(N4CCN(c6ccc(NC7CCC(=O)NC7=O)cc6F)CC4)CO5)nc3)cc2c1C#N (stereo not drawn) | HCC1569 | CDK1 Thr14 phosphorylation, in-cell western |  | 1000.00 nM | lower = stronger inhibition | phospho-CDK1 (Thr14) level | 118 a.u. |
| Cc1ccc(O)c(C)c1-c1cnc2[nH]c(-c3cnc(N4CCC(CN5CCN(c6ccc7c(c6)C(=O)N(C6CCC(=O)NC6=O)C7=O)CC5)CC4)nc3)cc2c1C#N (stereo not drawn) | HCC1569 | CDK1 Thr14 phosphorylation, in-cell western |  | 37.04 nM | lower = stronger inhibition | phospho-CDK1 (Thr14) level | 43.7 a.u. and 52.8 a.u. |

Excerpt of the above (study 1):
| target | temperature | SYPRO Orange fluorescence |
| --- | --- | --- |
| DCAF1 | 35.2 °C | 10300 a.u. |
| DCAF1 | 47.6 °C | 14200 a.u. |
